# Measured values pooled from the literature.
# Compare with care: the assays were run in different laboratories. Numbers after ± are the reported error.
Structure (SMILES),organism,assay,system,setting,scale,measurement,value
CON(C(=O)c1cn(C)nc1C(F)F)C(C)Cc1c(Cl)cc(Cl)cc1Cl (stereo not shown),Fusarium oxysporum,,,1.56 µg/mL,,inhibition,92%
CC[C@H](C)[C@H](NC(=O)[C@H](CO)NC(=O)[C@H](CO)NC(=O)[C@H](Cc1ccccc1)NC(=O)CN)C(=O)N[C@@H](Cc1ccccc1)C(=O)N[C@@H](CCCNC(=N)N)C(=O)NCC(=O)N[C@H](C(=O)N[C@@H](C)C(=O)N[C@@H](CCCCN)C(N)=O)C(C)C,Escherichia coli,,ATCC 8739,added: 2.5 mM CaCl2,,MBC,> 128 µM
NNC(=O)/C=C/c1ccc(N)cc1,Aedes aegypti,,,third instar larvae,,LC50,150 µg/mL
COc1ccc(Br)cc1/C=N/NC(=O)Cn1ccc(=O)c2ccccc21,Phytophthora capsici,microbial growth,,50 µg/mL,,inhibition,2.4%
Cc1cn(C2CC(N(C)C)C(CO)O2)c(=O)[nH]c1=O (stereo not shown),herpes simplex virus 2,viral replication,"HEL, G",,,EC50,> 370 nM
CC[C@H](C)[C@H](NC(=O)[C@H](CCCCN)NC(=O)[C@H](CCCCN)NC(=O)[C@H](CC(C)C)NC(=O)[C@H](CCCCN)NC(=O)[C@H](CCC(=O)O)NC(=O)[C@H](CCCCN)NC(=O)[C@@H](NC(=O)[C@H](CCCCN)NC(=O)[C@H](CC(N)=O)NC(=O)[C@H](CCCNC(=N)N)NC(=O)[C@H](Cc1ccccc1)NC(=O)[C@H](CCCCN)NC(=O)[C@H](CCCNC(=N)N)NC(=O)[C@H](CC(C)C)NC(=O)[C@H](CCCNC(=N)N)NC(=O)[C@H](CCCCN)NC(=O)[C@H](CCCNC(=N)N)NC(=O)[C@H](CC(C)C)NC(=O)[C@@H](N)CC(C)C)[C@@H](C)CC)C(=O)NCC(=O)N[C@@H](CCC(N)=O)C(=O)N[C@@H](CCCCN)C(=O)N[C@H](C(=O)N[C@@H](CCC(N)=O)C(=O)NCC(=O)N[C@@H](Cc1ccccc1)C(=O)N[C@H](C(=O)N1CCC[C@H]1C(=O)N[C@@H](CCCCN)C(=O)N[C@@H](CC(C)C)C(=O)N[C@H](C(=O)N1CCC[C@H]1C(=O)N[C@@H](CCCNC(=N)N)C(=O)N[C@H](C(=O)N[C@@H](CCC(=O)O)C(=O)N[C@@H](CO)C(=O)O)[C@@H](C)O)C(C)C)C(C)C)[C@@H](C)CC,Streptomyces scabiei,inhibition zone,CGMCC 4.176,"LB agar, overnight",,lethal concentration,8.93 µM
CCCCCCCCCC(=O)OCC1OC(n2cc(C)c(=O)[nH]c2=O)CC1N(C)C (stereo not shown),coxsackievirus B4,viral replication,HeLa,,,EC50,> 230 nM
O=C1C=C(N(Cc2ccc(Cl)nc2)CC(F)F)CO1,Bemisia tabaci,"leaf-dip assay, adults",Q biotype,72 h,reference: LC50 resistant over susceptible strain,resistance ratio,7
CCCc1ccc(C(=O)N2c3ccc(F)cc3[C@@H](Nc3ccccc3)C[C@H]2C)cc1,Aedes albopictus,,,"1 µM, 72 h, second-instar larvae",reference: Abbott-corrected control,mortality,81 ± 8%
CC[C@H](C)[C@H](NC(=O)[C@H](CO)NC(=O)[C@H](CO)NC(=O)[C@H](Cc1ccccc1)NC(=O)CN)C(=O)N[C@@H](Cc1ccccc1)C(=O)N[C@@H](CCCNC(=N)N)C(N)=O,Escherichia coli,,ATCC 8739,added: 150 mM NaCl,,MBC,> 128 µM
CC[C@H](C)[C@H](NC(=O)[C@@H](NC(=O)CN)C(C)C)C(=O)N[C@@H](Cc1ccccc1)C(=O)N[C@@H](CC(N)=O)C(=O)N[C@@H](C)C(=O)N[C@@H](CC(C)C)C(=O)N[C@@H](CCCCN)C(=O)NCC(=O)N[C@H](C(=O)N[C@@H](C)C(=O)N[C@@H](CCCCN)C(=O)N[C@H](C(=O)N[C@H](C(=O)N[C@@H](C)C(=O)N[C@@H](C)C(=O)N[C@@H](CCC(N)=O)C(=O)N[C@@H](CC(C)C)C(=O)N[C@@H](CC(C)C)C(=O)N[C@@H](CCCCN)C(=O)N[C@@H](CCCCN)C(=O)N[C@@H](C)C(=O)N[C@@H](CCCNC(=N)N)C(=O)N[C@H]1CSSC[C@@H](C(=O)O)NC(=O)[C@H](CO)NC(=O)[C@H](CCCCN)NC(=O)[C@H](CC(=O)O)NC(=O)[C@H](CC(C)C)NC(=O)[C@H](CCCCN)NC1=O)C(C)C)[C@@H](C)O)C(C)C,Staphylococcus aureus,persister cells in biofilm,MRSA NCTC 12493,added: vancomycin 4 µg/mL,,MBEC,512 µM
N=C(N)NCCC[C@H](NC(=O)[C@H](Cc1c[nH]c2ccccc12)NC(=O)[C@H](CCCNC(=N)N)NC(=O)[C@H](CCCNC(=N)N)NC(=O)[C@@H]1CCCN1C(=O)[C@H](CCCCN)NC(=O)[C@@H](N)CCCNC(=N)N)C(=O)N[C@@H](Cc1c[nH]c2ccccc12)C(=O)N[C@@H](Cc1c[nH]c2ccccc12)C(=O)N1CCC[C@H]1C(=O)N[C@@H](CCCCN)C(=O)N[C@@H](CCCNC(=N)N)C(=O)N1CCC[C@H]1C(=O)O,Staphylococcus aureus,"ELISA, item: IL-6","09057, BALB/c mice, sepsis model","intraperitoneal, 20 mg/kg, 12 h",reference: saline,serum cytokine level,decreased
CC[C@@H](C)[C@@H](NC(=O)[C@@H](CC(C)C)NC(=O)[C@@H](CCCCN)NC(=O)[C@@H](CC(C)C)NC(=O)[C@@H](CC(C)C)NC(=O)[C@H](NC(=O)[C@@H](Cc1c[nH]cn1)NC(=O)[C@@H](CC(C)C)NC(=O)[C@@H](CCCCN)NC(=O)[C@H](NC(=O)[C@@H](CCCCN)NC(=O)[C@@H](CCCCN)NC(=O)[C@@H](CC(C)C)NC(=O)[C@@H](CO)NC(=O)[C@@H](CCCCN)NC(=O)[C@@H](Cc1ccccc1)NC(=O)[C@H](NC(=O)[C@@H](CCCCN)NC(=O)[C@@H](CC(C)C)NC(=O)[C@@H](Cc1ccccc1)NC(=O)[C@@H](CO)NC(=O)[C@@H](CCCCN)NC(=O)[C@@H](Cc1c[nH]c2ccccc12)NC(=O)[C@@H](CCCCN)NC(C)=O)[C@H](C)O)[C@H](C)O)[C@H](C)O)C(=O)N[C@H](CO)C(=O)N[C@H](CO)C(N)=O,ascomycota fungi,,,three species,,MIC50 geometric mean,7.2 µg/mL
CC[C@@H](C)[C@@H](NC(=O)[C@@H](C)NC(=O)[C@@H](CCCCN)NC(=O)[C@@H](CC(C)C)NC(=O)[C@@H](C)NC(=O)[C@H](NC(=O)[C@@H](CCCCN)NC(=O)[C@@H](CC(C)C)NC(=O)[C@H](NC(=O)[C@@H](CCCCN)NC(=O)[C@@H](CCCCN)NC(=O)[C@@H](CCCCN)NC(=O)[C@@H](C)NC(=O)[C@@H](CCCCN)NC(=O)[C@@H](CO)NC(=O)[C@@H](Cc1ccccc1)NC(=O)[C@H](NC(=O)[C@@H](CCCCN)NC(=O)[C@@H](CC(C)C)NC(=O)[C@@H](Cc1ccccc1)NC(=O)[C@@H](CO)NC(=O)[C@@H](CCCCN)NC(=O)[C@@H](Cc1c[nH]c2ccccc12)NC(=O)[C@@H](CCCCN)NC(C)=O)[C@H](C)O)C(C)C)[C@H](C)O)C(=O)N[C@H](CO)C(=O)N[C@H](CCCCN)C(N)=O,Acinetobacter baumannii,,11 isolates,,reference: HC50 over geometric mean MIC,therapeutic index,424
OC[C@H]1O[C@@H]([Se]Cc2cccc3c(C[Se][C@@H]4O[C@H](CO)[C@H](O)[C@H](O)[C@H]4O)cccc23)[C@H](O)[C@@H](O)[C@H]1O,Trypanosoma brucei,"parasite growth, flow cytometry",,"5 µM, 24 h",,viability,96%
O=C(Cn1ccc(=O)c2ccccc21)N/N=C/c1cc(Br)c(O)c(Br)c1,Tobacco mosaic virus,"viral infectivity, in vivo plant",,500 µg/mL,,inactivation activity,23.8 ± 2.5%
S=C(NCc1ccccn1)NCc1ccccn1,Proteus vulgaris,"microbial growth, well diffusion",,10 µg/mL,,inhibition zone,12 mm
COc1ccc(/C=C/c2cc(O)cc(O[C@@H]3O[C@H](CO)[C@@H](O)[C@H](O)[C@H]3O)c2)cc1O,Streptococcus mutans,microbial growth,,,,MIC50,134 µM
CC[C@H](C)[C@H](NC(=O)[C@H](CCCCN)NC(=O)[C@H](CCCCN)NC(=O)[C@H](CC(C)C)NC(=O)[C@H](CCCCN)NC(=O)[C@H](CCC(=O)O)NC(=O)[C@H](CCCCN)NC(=O)[C@@H](NC(=O)[C@H](CCCCN)NC(=O)[C@H](CC(N)=O)NC(=O)[C@H](CCCNC(=N)N)NC(=O)[C@H](Cc1ccccc1)NC(=O)[C@H](CCCCN)NC(=O)[C@H](CCCNC(=N)N)NC(=O)[C@H](CC(C)C)NC(=O)[C@H](CCCNC(=N)N)NC(=O)[C@H](CCCCN)NC(=O)[C@H](CCCNC(=N)N)NC(=O)[C@@H](N)CC(C)C)[C@@H](C)CC)C(=O)NCC(=O)N[C@@H](CCC(N)=O)C(=O)N[C@@H](CCCCN)C(=O)N[C@H](C(=O)N[C@@H](CCC(N)=O)C(=O)NCC(=O)N[C@@H](Cc1ccccc1)C(=O)N[C@H](C(=O)N1CCC[C@H]1C(=O)N[C@@H](CCCCN)C(=O)N[C@@H](CC(C)C)C(=O)O)C(C)C)[C@@H](C)CC,Streptomyces scabiei,inhibition zone,CGMCC 4.176,"LB agar, overnight",,lethal concentration,3.1 µM
CC(C)C[C@H](NC(=O)[C@H](CC(=O)O)NC(=O)[C@H](CC(C)C)NC(=O)[C@H](CC(=O)O)NC(=O)CNC(=O)[C@@H]1CCCN1C(=O)[C@H](CCCCN)NC(=O)[C@H](CC(C)C)NC(=O)[C@H](Cc1c[nH]c2ccccc12)NC(=O)[C@@H]1CCCN1)C(=O)O,dengue virus type 2,plaque reduction,"LLC-MK2, New Guinea C",200 µM,,maximum inhibition,41.5 ± 20%
CCn1c2ccccc2c2cc(/C=N/NC(=O)Cn3ccc(=O)c4ccccc43)ccc21,Tobacco mosaic virus,"viral infectivity, in vivo plant",,500 µg/mL,,inactivation activity,35.2 ± 4.8%
CC[C@H](C)[C@H](NC(=O)[C@H](CCCNC(=N)N)NC(=O)[C@@H]1CCCN1C(=O)[C@@H](NC(=O)[C@H](CO)NC(=O)[C@H](CCCCN)NC(=O)[C@H](CO)NC(=O)[C@H](CCC(N)=O)NC(=O)[C@H](CCCCN)NC(=O)[C@H](CC(C)C)NC(=O)[C@H](Cc1ccccc1)NC(=O)[C@H](Cc1ccccc1)NC(=O)[C@H](CC(N)=O)NC(=O)[C@H](CCC(=O)O)NC(=O)[C@H](Cc1ccccc1)NC(=O)[C@H](CC(=O)O)NC(=O)CN)C(C)C)C(N)=O,Aedes aegypti,agonist,pharate pupae,"injection, 10 fmol, 9-12 h before ecdysis",,ecdysis contraction duration,~10 min
CC[C@@H](C)[C@@H](NC(=O)[C@@H](C)NC(=O)[C@@H](CCCCN)NC(=O)[C@@H](CC(C)C)NC(=O)[C@@H](C)NC(=O)[C@H](NC(=O)[C@@H](Cc1c[nH]cn1)NC(=O)[C@@H](CC(C)C)NC(=O)[C@H](NC(=O)[C@H](NC(=O)[C@@H](CCCCN)NC(=O)[C@@H](CCCCN)NC(=O)[C@@H](C)NC(=O)[C@@H](CO)NC(=O)[C@@H](CCCCN)NC(=O)[C@@H](Cc1ccccc1)NC(=O)[C@H](NC(=O)[C@@H](CCCCN)NC(=O)[C@@H](CC(C)C)NC(=O)[C@@H](Cc1ccccc1)NC(=O)[C@@H](CO)NC(=O)[C@@H](CCCCN)NC(=O)[C@@H](Cc1c[nH]c2ccccc12)NC(=O)[C@@H](CCCCN)NC(C)=O)[C@H](C)O)[C@H](C)O)C(C)C)[C@H](C)O)C(=O)N[C@H](CO)C(=O)N[C@H](CO)C(N)=O,Rhizopus microsporus,,clinical isolate,"48 h, 30 °C",,MIC50,6.3 µg/mL
CCc1ccc(C(=O)N2c3ccc(F)cc3[C@@H](Nc3ccccc3)C[C@H]2C)cc1,Aedes albopictus,,,"1 µM, 72 h, second-instar larvae",reference: Abbott-corrected control,mortality,91 ± 2%
O=C(Cc1csc2nc(-c3ccc(Br)cc3)cn12)NN=C1CCCC1,herpes simplex virus 2,"viral cytopathicity, microscopy",HEL,,,EC50,> 100 µg/mL
C[C@@](O)(C(F)F)[C@H](NC(=O)c1ccc(C#CC#CC2CC2)cc1)C(=O)NO,Enterobacteriaceae,,"ESBL, carbapenemase negative",,,MIC50,0.064 µg/mL
CN1CC(=O)N=C1N.C[C@H](CCC(=O)O)[C@H]1CC[C@H]2[C@@H]3[C@H](O)C[C@@H]4C[C@H](O)CC[C@]4(C)[C@H]3CC[C@]12C,Bacillus cereus,,TISTR 035,"1 mg per disc, 18 to 24 h, 37 °C, 6 mm disc",,inhibition zone diameter,12.4 ± 0.7 mm
O=[N+]([O-])c1ccc(/C=N/N=C/c2ccc(OCc3ccccc3)cc2)o1,Trypanosoma congolense,,"IL3000, mouse","oral, 100 mg/kg daily for 7 days, from day 4 post-infection",,day of death,10 days post-infection
CCCCc1ccc(-c2nc(C)c(C(C)=NNC(=N)N)s2)cc1,Staphylococcus aureus,,USA500 MRSA,,,MBC,1.3 µg/mL
Nc1ccn(C[C@@H](CO)OCP(=O)(O)OCCCS(=O)(=O)CCCCCCCCCCCCC2CCC2)c(=O)n1,Murid betaherpesvirus 1,qPCR,"MEF, Smith",,reference: CC50 over EC50,selectivity index,> 3570
C[C@@H]1C[C@H](Nc2ccccc2)c2cc(F)ccc2N1C(=O)c1ccc(Cl)c(F)c1,Aedes albopictus,,second-instar larvae,72 h,,LC50,200 nM
OC[C@H]1O[C@@H]([Se]Cc2ccc(C[Se][C@@H]3O[C@H](CO)[C@H](O)[C@H](O)[C@H]3O)c3ccccc23)[C@H](O)[C@@H](O)[C@H]1O,Trypanosoma brucei,"parasite growth, flow cytometry",,"5 µM, 24 h",,viability,94.5%
Cc1ccc(C(=O)N2c3ccc(F)cc3[C@@H](Nc3ccccc3)C[C@H]2C)cc1,Aedes albopictus,,,"1 µM, 72 h, second-instar larvae",reference: Abbott-corrected control,mortality,83 ± 4%
CC(C)Oc1ncnc2c1c(Cl)cn2[C@@H]1O[C@H](CO)[C@@H](O)[C@H]1O,Trypanosoma congolense,"parasite growth, resazurin",6C3 diminazene-resistant,48 h plus 24 h resazurin,,EC50,3230 ± 360 nM
